# Published values pooled from the literature.
# Each numbered part is a random draw from the data of one study; scales do not carry over between parts. Positions count from the first letter of the parent shown.

# Set 1
# Target: Runt-related transcription factor 3, Runt domain (RUNX3, Homo sapiens, UniProt Q13761, residues 53-186)
# UniProt Q13761, sequence (53-186, looked up): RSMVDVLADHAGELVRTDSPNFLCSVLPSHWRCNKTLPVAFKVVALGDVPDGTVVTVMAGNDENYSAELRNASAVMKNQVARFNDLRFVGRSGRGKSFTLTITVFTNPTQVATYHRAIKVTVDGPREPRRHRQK
# Method: protein-binding microarray
# Molecule type: hairpin DNA
# Sample: in vitro
# Tested at: not given
# Setting: whole hairpin DNA, median over replicate spots
# Relative to: not given
# Direction: higher = stronger binding
Sequence,median fluorescence [a.u.]
CTCAGTTCTGTGGCGTGGACTCCTGTCCACGCCACAGAACTGAGACACTC,4170
GAGGCCCGTTGCGGTTGGCCTCCTGGCCAACCGCAACGGGCCTCACACTC (5mC at 7 37),9430
GAGGCCCAACCGCAAAAGCCTCCTGGCTTTTGCGGTTGGGCCTCACACTC,9810
GAGGCCTGTTGCCGTTGGCCTCCTGGCCAACGGCAACAGGCCTCACACTC (5mC at 31),4670
GAGGCCTGTCGCGGTTGGCCTCCTGGCCAACCGCGACAGGCCTCACACTC (5mC at 10 12 34),6290
CTCAGTTCTGTGGGCTGGACTCCTGTCCAGCCCACAGAACTGAGACACTC (5mC at 8),4010
GCGGCCTGTCGCGGTTGGCCTCCTGGCCAACCGCGACAGGCCGCACACTC (5mC at 2),6240
GAGGCCTGTCCGGGTTGGCCTCCTGGCCAACCCGGACAGGCCTCACACTC (5mC at 33),4920

# Set 2
# Target: Hepatocyte nuclear factor 3-alpha (Foxa1, Mus musculus, UniProt P35582, residues 1-468, full length assumed)
# UniProt P35582, sequence (whole entry, looked up): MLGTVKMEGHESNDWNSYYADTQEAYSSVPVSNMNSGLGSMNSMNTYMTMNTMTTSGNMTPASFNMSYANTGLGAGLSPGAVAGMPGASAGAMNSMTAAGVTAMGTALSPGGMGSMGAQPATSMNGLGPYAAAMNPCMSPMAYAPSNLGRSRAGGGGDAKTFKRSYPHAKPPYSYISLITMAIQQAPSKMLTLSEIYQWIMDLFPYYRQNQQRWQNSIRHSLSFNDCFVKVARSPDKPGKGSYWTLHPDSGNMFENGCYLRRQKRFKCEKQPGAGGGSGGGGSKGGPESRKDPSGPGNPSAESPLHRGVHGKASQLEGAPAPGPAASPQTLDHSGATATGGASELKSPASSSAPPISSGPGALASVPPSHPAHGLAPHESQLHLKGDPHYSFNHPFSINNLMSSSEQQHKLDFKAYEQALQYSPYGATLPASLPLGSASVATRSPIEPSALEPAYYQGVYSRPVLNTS
# Method: EMSA with sequencing
# Molecule type: double-stranded DNA, one strand shown
# Sample: in vitro
# Tested at: 10 and 20 nM
# Setting: whole designed probe, mean of two concentrations, ends assumed
# Relative to: negative control set to 0
# Direction: higher = stronger binding
# All sequences stand within: GTGAGCGGTGCCCATTGATGGGGAAC … TTTCACTGGGATCGTGGGGAC
Sequence,normalised bound fraction [ratio]
CAATGGGGTAGGTCAGCCCCAGTGAACTCTCAAATGACCACTGAAGGAGGAAGTGAGTGCAGAGTGTGATACCACTCACATCCCAGCCCAGACTGTTTGCTCAGCTGGGAGGAGTGTTCTTCCTGCATTGCAATTCGAGATAACACCCCTTCTCATGGCTTCAGGCATCACCTATCTCCTCTAGGCTGCGCTC,0.188
ATCTTCCCCCTCTTCCTTGCCCCACCAGCTCACCTTCCCGGGTTATTTGCAGATAGGAAAATAAATAAAGCCGGCATTCGTTAACCCTCTTCACGCGCATACTGCCAGAGCAAACAGATCGATGAATCATGTTTGGCGACGCCAGGCTCCGGGAGAGCAAAGCACCGTGTCAGGGCCATGATCCGGGGTGGCC,0.395
GGTGGGATGGCTGCCCGGTAGAGACCGCCACCCAGACTCCCAGTTGCAGCTTCCTGCTGGGCCACATGGATGTTGTTAGGTTAGTGTTTTAGAGTCAACAAGGCCTAAACAGATCTATCATTTCCATTTCTCTAATTAGTTCCCTAATTTTATTACTGATATCATTATACTTCCTCTTACTCTGGTTCAAAAG,0.0505
TTGCATAAAGATTTATAGTTTAAGGTGGAGGGAGGCAGAGTTCTGGTTGGCACCAAGTAACCCAGCTGTGGTGAAAATGGGACTAAAGGAAAGTAAACAAGGAAAGACTGACAAATGCACACTGTATTTTATAGAAAGCCTATGTCTGTGACTCTAGTGGTTTTAGTGAATCTGGAATACTTTATAATTCAAT,0.378
GAGCTGCTTGCAATTGAGTTGTATGTATGCTTCCACTTAATACGTCCTGCCGAGCCTGTAAGCCAACAGGACACTTCCGGCATCTGCCCTCTGTGTTTACCTACTCTCTTTTTATGTCTTATTCCCAGAATGACTGGGGACCAAAGGAATCCTTTGCAGGAGTTTTCTCCAGACAGACAGTTCCACATGCTAG,0.238
ATTGAAGAACAAACAGCTATTGCCCAGCCCAGAAAGAGCCACCTCTTGGTAACTCCTGTGTGTGACATAAACTCATACCAGCAGTATCACAGAGCAAACAGCATAAACTCTGAATGCCACTCACTATTTGCTTTGCCAATAATAGTTCCAGGATGTACTGTTCTTCCAATGGGCTTAACAAACATTTCGATGC,0.382
CTCATTCCTTGCTTCCGCCAATAATCTGACTAGTAAAGAAGTCACTGCATGCCACAAATTGTCAGTGCTGACTTCCTCAACAAGGAAGTTATTTATTTACTTATTTAAGAGTGACTCAGTATATATGCAAATTCCATCTTGAGAATACCAACTCCTGATGCCAACTGATTGTCAGTCATGGCTACAACAGGAG,0.441
CCACACTGGACAATACTGCATTGTACACCTAAAATTCCATTAAGAGGGTAGATCTCATGTAAAGTATTTACAACACAAGAAAATTTTTTAAAGTGTTTACATATTTAATAAATACTTTTTTCTATTTCTTAGCATACAGCACCAATGTAAATAAATATTAATTATAGCATCCACAGTTAAATTTCTCAATATT,0.48

# Set 3
# Target: Interferon regulatory factor 7, full length, phosphomimetic (IRF7, Homo sapiens, UniProt Q92985, residues 1-503, S471D/S472D/S475D/S476D/S477D/S483D/S484D/S487D)
# UniProt Q92985, sequence (whole entry, unmodified, looked up): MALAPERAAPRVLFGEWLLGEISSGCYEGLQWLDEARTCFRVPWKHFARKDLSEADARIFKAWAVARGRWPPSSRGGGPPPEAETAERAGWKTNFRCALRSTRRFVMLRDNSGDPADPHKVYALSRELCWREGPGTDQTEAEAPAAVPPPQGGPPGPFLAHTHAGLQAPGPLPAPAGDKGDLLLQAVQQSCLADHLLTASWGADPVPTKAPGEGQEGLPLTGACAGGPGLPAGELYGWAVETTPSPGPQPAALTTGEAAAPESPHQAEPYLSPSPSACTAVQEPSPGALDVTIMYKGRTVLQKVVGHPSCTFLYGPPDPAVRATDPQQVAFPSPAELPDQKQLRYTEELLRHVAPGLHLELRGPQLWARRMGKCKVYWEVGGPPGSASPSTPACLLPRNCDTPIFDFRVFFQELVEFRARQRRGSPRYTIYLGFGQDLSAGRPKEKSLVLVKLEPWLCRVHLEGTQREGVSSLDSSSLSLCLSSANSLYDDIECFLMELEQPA
# Method: protein-binding microarray
# Molecule type: double-stranded DNA, one strand shown
# Sample: in vitro
# Tested at: 2200 nM top
# Setting: 60-bp whole probe
# Together with: salmon DNA 0.4 mg/ml
# Relative to: random background probes
# Direction: higher = stronger binding
# All sequences stand within: GCCTAGCAC … GTCTTGATTCGCTTGACGCTGCTG
Sequence,fitted relative affinity [z-score]
GACGATCTGGGGTTTCGAGACGTGCTA,1.41
GACGGTTTTCTTATCCTGACGTGCTAG,2.01
ATGTCCTCCTCTCTCTTTCCGTGCTAG,2.67
TGTGTTTTAAATAGGGCAAAGTGCTAG,-0.129
TTAGATTTCGGGTATCGATTTGTGCTA,3.41
GCGGGAGAAAGCAAGCCCAGGTGCTAG,-0.807
GACGGACTGCTTATCCTGACGTGCTAG,0.506
GCATCTATCTTAAATAGGGACGTGCTA,-0.0891

# Set 4
# Target: RING finger protein unkempt homolog, zinc fingers 1-6, GST-SBP tag (UNK, Homo sapiens, UniProt Q9C0B0, residues 30-357)
# Method: RNA Bind-n-Seq
# Molecule type: RNA
# Sample: in vitro
# Tested at: not given
# Setting: RNA with constant flanks, human and mouse sites, ends assumed
# Relative to: input RNA pool
# Direction: higher = stronger binding
# All sequences stand within: GGGAGUUCUACAGUCCGACGAUC … CAACAGAGGAUUGAGCAUCA
# Target sequence (chain): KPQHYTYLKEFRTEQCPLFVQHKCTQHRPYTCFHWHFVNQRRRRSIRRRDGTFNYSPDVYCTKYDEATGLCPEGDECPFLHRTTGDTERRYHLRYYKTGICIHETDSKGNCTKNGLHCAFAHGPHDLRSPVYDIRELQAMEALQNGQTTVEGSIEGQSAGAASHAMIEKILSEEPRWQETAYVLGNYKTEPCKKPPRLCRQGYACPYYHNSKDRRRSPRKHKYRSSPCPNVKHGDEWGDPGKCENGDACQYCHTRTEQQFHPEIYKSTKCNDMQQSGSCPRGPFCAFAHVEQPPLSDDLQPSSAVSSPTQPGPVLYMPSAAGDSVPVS
Sequence,bound/input enrichment [ratio]
AAAAUUCUUUACCCCAAAACACUGUUUUUACUUCGCGGAAACCAUGAAUGUAGGCACCUCACAGAGUAUUUCACGUUUAAACAAGAAUGUAAAAUAAAGUAUUCAGAACGCGUUUAUGAC,0.321
GAGUUCCAUCUUUUCUCUAGGAAGGUAGAAGAGAUUUUGAAGGAGAAGAAUGUUUCAUAUGUUAGUGCAAUUUCCACACCUAUCUUUUCAGCACAAGAGAAGAUGAAUCGCCUUUCUGAG,0.144
UGUGUGCGUGCCCGAGUGUGCGCGCGCGGGUGUGUGGACUCGGAGGUGGGGGCAGCCGAGUUAGUCCCAAGUCGUCGGACUCCAUUUGCUAUUCUUUUCUUUCUCUCCCACACCCGUGUG,0.288
GGGAUUUCAUUUAUCUUUUGCUGUUUCCGAAACAAUGACCAUCCAGAAAUCACAUAUCGGCUUAGGAAUGAUAGCAACUUUGCACUUCAGACAAUGGAGCCGGCGCUGCCCAUGCCCCCU,0.207
GCACCCCAGCUGCAGCCCAACCCUGAGCCCGAAGGAGACUCGGAUGACAGCACUGCCCUAGGCACCCUAGAAUUCACACUUCUCUUUGAUGAGGACAACAGCGCCCUGCACUGCACAGCC,0.56
AGACAUGUCCUCACGUACAUGGAGGAUGCAGUGUGCCAGCUGCUGGAGAACAGGGAGGAUAUUAGCCAGUAUGGCAUUGCCCGGUUCUUCACUGACUAUUUUAACAGCGUAUGCCAAGGA,0.116
UUUCUGGUGCAGCGAGCCCGGGAACUAGUGCCCCAGGACCUGUGGGCAGCCAAGGCAUGGCUGAUCACGGCCCGCAGCCUCUACCCGGCCGACUUCAACAUCCAGUAUGAAAUGUACACC,0.0727
GAGCACAUGAAGGAGUCGACAUUGGAAGCCAUCGGUUAUAUUUGCCAAGAUAUAGACCCAGAGCAGCUACAAGAUAAAUCCAAUGAGAUUCUGACUGCCAUAAUCCAGGGGAUGAGGAAA,0.18

# Set 5
# Target: CCNE2, cyclin fold, Cln2 fusion (human)
# Method: yeast growth competition, sequencing
# Sample: yeast
# Setting: strong parent motif
# Relative to: not given
# Direction: higher = stronger binding
# Starting sequence: viral docking peptide; TSVRRALFTGGSD; partner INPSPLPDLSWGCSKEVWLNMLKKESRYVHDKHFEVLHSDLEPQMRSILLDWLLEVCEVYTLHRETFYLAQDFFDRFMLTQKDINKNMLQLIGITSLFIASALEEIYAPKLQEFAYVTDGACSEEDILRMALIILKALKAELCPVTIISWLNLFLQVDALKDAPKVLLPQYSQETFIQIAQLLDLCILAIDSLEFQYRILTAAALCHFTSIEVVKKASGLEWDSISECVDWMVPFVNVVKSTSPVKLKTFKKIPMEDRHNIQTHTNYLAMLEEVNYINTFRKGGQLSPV
Change,normalised enrichment score
TSVRRALFTGGPD [S12P],4.14
TSVRRALFTGGFD [S12F],3.61
TSVRRAEFTGGSD [L7E],0.0659
TSVRRALFTPGSD [G10P],3.41
TSVRRVLFTGGSD [A6V],5.55
TKVRRALFTGGSD [S2K],3.56
TSVRRCLFTGGSD [A6C],3.41
TSVRRQLFTGGSD [A6Q],6.66
TSVRRALFTGGLD [S12L],3.36
TMVRRALFTGGSD [S2M],2.45
TSVRRALFKGGSD [T9K],3.29
TSVRIALFTGGSD [R5I],0.62
TSVRRALFTGGCD [S12C],4.13
TSVTRALFTGGSD [R4T],0.682
TSVRRHLFTGGSD [A6H],1.92
TSVRRALFTGGMD [S12M],3.7
TSVRKALFTGGSD [R5K],1.25
TSVRRALFTGESD [G11E],4.33
TSVRFALFTGGSD [R5F],0.275
TSVRRACFTGGSD [L7C],0.415
TSVRRPLFTGGSD [A6P],0.271
TSVRRAAFTGGSD [L7A],0.181
TSVRRTLFTGGSD [A6T],2.94
TSVRRALFTGHSD [G11H],3.93
THVRRALFTGGSD [S2H],4.07
